Results of several laboratories.
Every numbered part comes from another study and shows a few of its results, in no order.
Sequence of UniProt P9WI81 (whole entry, looked up): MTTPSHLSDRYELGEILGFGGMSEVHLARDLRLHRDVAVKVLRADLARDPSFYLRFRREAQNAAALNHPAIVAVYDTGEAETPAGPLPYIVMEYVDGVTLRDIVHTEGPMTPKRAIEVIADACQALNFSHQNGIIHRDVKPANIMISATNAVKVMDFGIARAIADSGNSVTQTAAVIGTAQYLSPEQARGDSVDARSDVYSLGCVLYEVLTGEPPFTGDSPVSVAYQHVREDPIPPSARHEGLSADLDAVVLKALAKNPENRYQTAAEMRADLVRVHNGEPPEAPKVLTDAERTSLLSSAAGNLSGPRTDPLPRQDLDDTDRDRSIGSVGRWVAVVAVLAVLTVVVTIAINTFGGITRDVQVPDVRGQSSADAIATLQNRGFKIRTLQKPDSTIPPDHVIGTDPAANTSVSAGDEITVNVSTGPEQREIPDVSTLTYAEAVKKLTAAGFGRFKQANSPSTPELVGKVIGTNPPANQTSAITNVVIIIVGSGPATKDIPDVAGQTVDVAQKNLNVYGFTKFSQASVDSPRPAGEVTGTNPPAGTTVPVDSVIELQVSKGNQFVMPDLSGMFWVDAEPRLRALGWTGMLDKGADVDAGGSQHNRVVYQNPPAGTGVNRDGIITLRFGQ
Sequence of UniProt Q9BYT3 (whole entry, looked up): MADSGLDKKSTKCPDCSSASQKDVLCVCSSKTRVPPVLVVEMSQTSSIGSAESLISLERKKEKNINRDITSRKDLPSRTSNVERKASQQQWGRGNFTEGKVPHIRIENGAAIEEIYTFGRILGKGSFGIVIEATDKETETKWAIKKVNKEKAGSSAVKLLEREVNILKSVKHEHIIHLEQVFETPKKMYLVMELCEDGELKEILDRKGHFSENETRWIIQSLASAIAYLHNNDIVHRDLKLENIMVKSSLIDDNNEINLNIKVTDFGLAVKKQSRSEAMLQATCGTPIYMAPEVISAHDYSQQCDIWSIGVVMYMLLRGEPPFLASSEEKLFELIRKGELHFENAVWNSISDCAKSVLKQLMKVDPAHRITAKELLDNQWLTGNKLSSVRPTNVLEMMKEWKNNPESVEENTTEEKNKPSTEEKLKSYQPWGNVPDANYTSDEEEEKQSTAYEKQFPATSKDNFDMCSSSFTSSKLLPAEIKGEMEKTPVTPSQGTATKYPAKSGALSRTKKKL
Sequence of UniProt P29376 (whole entry, looked up): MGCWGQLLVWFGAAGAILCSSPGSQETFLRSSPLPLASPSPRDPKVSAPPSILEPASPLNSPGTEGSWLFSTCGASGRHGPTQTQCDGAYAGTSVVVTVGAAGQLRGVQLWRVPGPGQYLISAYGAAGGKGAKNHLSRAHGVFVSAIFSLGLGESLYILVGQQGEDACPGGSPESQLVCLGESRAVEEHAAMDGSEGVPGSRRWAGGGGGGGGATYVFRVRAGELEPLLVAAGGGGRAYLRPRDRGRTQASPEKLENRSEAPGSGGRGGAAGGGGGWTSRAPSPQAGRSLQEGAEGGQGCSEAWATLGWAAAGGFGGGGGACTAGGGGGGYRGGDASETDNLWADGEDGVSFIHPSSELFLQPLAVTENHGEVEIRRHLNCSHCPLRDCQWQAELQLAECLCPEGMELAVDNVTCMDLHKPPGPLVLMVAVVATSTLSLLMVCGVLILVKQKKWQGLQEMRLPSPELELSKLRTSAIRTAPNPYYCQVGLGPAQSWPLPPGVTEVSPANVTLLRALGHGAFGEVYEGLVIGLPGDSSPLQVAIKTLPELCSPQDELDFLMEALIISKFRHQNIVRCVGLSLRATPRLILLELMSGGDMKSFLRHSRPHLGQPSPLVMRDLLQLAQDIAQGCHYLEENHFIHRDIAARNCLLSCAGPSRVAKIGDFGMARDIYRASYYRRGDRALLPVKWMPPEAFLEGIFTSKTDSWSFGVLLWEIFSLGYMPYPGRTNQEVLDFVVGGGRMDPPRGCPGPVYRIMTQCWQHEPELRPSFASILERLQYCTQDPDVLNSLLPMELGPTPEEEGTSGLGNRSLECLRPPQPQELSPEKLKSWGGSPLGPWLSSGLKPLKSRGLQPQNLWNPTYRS

Study 1
Target: Calcium/calmodulin-dependent protein kinase type II subunit alpha (CAMK2A, Homo sapiens, UniProt Q9UQM7)
Sequence of UniProt Q9UQM7 (whole entry, looked up): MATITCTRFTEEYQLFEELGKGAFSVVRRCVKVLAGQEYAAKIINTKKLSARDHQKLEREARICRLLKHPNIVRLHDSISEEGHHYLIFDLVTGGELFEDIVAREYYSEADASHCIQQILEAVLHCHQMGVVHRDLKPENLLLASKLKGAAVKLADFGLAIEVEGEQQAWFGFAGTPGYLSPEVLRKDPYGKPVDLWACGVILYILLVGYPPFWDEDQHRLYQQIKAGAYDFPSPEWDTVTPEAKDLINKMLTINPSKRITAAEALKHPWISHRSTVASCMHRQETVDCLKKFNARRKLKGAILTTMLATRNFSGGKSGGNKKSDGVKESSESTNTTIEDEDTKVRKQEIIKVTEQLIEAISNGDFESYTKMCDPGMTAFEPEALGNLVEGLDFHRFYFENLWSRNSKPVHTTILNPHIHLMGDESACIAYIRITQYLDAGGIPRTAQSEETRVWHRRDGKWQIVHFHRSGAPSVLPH
Observed: enzyme activity
Mode: inhibitor
Tested at: 10 µM
| Compound | inhibition [%] |
| --- | --- |
| CN1[C@@H]2CC(O)C[C@H]1[C@@H]1O[C@@H]12 (stereo partly drawn) | 12 |
| O=C(O)COc1ccccc1 | 11 |
| C=C1[C@H]2C[C@@]3([C@@H]1O)[C@@H](CC2=O)[C@]12[C@@H]4C[C@H]3[C@H]1N(CC)C[C@]4(C)CC[C@@H]2O | 15 |
| O[C@H]1[C@H](O)[C@@H](O)CN2CC[C@H](O)[C@H]12 | -32 |
| CC(C)=CCC[C@]1(C)C=Cc2c(O)c3c(c(CC=C(C)C)c2O1)O[C@]12C(=C[C@@H]4C[C@H]1C(C)(C)O[C@@]2(C/C=C(/C)C(=O)O)C4=O)C3=O | -33 |
| COc1cc(C=O)cc(OC)c1OC | -2 |

Study 2
Target: DNA polymerase theta, ATPase domain (POLQ, Homo sapiens, UniProt O75417)
Sequence of UniProt O75417 (whole entry, unmodified, looked up): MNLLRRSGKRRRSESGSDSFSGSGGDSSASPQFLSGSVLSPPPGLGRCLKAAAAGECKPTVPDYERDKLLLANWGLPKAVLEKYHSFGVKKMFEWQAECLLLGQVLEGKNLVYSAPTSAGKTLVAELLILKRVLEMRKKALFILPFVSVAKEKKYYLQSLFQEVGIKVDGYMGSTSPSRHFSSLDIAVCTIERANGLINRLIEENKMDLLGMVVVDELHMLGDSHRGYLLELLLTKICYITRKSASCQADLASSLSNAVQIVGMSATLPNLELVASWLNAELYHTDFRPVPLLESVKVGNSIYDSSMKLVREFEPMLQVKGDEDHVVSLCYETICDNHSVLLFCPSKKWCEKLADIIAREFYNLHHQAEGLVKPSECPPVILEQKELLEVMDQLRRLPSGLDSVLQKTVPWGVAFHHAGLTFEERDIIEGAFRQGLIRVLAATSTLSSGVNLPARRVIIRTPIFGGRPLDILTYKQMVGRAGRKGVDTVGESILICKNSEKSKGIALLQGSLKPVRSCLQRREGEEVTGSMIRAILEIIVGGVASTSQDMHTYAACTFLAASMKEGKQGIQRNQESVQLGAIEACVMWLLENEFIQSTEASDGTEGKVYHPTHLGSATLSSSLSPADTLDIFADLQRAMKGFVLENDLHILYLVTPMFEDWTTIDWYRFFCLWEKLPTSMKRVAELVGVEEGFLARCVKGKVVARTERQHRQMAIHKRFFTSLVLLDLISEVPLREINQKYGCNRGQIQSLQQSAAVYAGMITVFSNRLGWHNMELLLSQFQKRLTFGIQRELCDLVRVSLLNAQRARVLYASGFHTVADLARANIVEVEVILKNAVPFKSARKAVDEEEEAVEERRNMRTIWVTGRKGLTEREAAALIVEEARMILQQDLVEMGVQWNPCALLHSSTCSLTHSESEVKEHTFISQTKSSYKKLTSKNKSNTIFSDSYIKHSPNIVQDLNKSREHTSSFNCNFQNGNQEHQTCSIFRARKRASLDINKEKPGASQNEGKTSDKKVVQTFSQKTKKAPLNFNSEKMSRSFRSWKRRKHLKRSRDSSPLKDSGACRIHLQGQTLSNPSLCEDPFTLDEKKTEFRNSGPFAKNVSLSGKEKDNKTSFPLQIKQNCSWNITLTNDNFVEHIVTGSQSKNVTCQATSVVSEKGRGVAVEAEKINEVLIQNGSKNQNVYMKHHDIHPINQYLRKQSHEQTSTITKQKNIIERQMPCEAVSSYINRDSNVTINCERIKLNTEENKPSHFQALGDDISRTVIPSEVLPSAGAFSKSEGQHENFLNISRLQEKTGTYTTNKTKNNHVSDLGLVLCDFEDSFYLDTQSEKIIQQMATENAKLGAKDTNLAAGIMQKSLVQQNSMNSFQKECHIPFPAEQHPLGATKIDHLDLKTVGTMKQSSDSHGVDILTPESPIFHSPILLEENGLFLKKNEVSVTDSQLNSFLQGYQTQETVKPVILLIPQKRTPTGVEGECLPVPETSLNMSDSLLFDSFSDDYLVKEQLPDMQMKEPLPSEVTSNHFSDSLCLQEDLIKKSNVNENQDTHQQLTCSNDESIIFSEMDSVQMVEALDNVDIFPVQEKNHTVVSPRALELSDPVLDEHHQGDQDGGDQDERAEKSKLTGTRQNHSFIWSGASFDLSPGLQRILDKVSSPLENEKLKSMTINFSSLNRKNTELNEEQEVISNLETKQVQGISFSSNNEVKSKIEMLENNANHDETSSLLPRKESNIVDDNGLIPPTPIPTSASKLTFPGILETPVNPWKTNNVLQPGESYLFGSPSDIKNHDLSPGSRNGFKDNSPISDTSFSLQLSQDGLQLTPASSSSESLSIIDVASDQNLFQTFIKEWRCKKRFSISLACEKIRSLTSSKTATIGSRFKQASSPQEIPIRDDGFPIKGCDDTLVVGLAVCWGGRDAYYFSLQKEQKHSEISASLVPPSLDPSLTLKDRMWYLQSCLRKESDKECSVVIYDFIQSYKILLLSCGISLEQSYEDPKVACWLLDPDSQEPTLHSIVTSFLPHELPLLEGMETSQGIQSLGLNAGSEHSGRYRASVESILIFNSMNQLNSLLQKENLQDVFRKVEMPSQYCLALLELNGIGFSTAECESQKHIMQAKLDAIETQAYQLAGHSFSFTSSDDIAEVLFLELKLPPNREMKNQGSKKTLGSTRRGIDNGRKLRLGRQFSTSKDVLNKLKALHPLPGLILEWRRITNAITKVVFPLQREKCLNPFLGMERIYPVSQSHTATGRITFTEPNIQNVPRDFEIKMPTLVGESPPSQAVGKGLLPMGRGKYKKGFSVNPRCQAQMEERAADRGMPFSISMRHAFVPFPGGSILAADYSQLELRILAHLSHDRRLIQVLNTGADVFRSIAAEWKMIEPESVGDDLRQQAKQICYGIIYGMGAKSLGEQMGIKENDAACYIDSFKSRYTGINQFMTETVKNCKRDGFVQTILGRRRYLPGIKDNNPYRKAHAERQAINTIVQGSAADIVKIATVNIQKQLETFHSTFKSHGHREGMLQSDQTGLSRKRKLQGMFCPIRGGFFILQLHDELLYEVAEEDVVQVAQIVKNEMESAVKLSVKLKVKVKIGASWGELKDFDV
Observed: enzyme activity
Mode: inhibitor
Tested at: 77 µM
Reference: untreated
| SMILES | remaining activity [%] |
| --- | --- |
| C#CCOC(=O)C1=CCCN(C)C1 | 99 |
| COc1ccc(N(C(=O)Oc2c(C)cccc2C)c2ccnc(Nc3ccc(N4CCN(C)CC4)cc3)n2)c(OC)c1 | 101 |
| CC(=O)OCC1=C(C(=O)O)N2C(=O)[C@@H](N)[C@H]2SC1 | 98.4 |
| C/C(=C\c1csc(C)n1)[C@@H]1C[C@@H]2O[C@@H]2CCC[C@H](C)[C@H](O)[C@@H](C)C(=O)C(C)(C)[C@@H](O)CC(=O)O1 | 98.4 |

Study 3
Structure (SMILES): Cc1nc(Nc2ncc(C(=O)Nc3c(C)cccc3Cl)s2)cc(N2CCN(CCO)CC2)n1
Observed: enzyme activity
Mode: inhibitor
Technique: radiometric
Tested at: 0.5 µM
| target | activity vs control [%] |
| --- | --- |
| STK33 (Homo sapiens, UniProt Q9BYT3) | 88.7 |
| LTK (Homo sapiens, UniProt P29376) | 97.7 |
| DYRK1B (Homo sapiens, UniProt Q9Y463) | 98.4 |

Further values, each from its own experiment
Observed: cell-free assay
Technique: competition with immobilised ligand
Tested at: 1 µM
| Structure (SMILES) | target | remaining binding |
| --- | --- | --- |
| CCC(=N\O)/C(C)=C/c1ccc(F)cc1 | pknB (Mycobacterium tuberculosis, UniProt P9WI81) | 100% |
| CC(=O)C1=C(C)N(c2cccc(C(F)(F)F)c2)C(=O)N[C@@H]1c1ccc(C#N)nc1 | CRK2 (Plasmodium falciparum, UniProt P61075) | 100% |

Repeated from above (study 2):
| SMILES | remaining activity [%] |
| --- | --- |
| C#CCOC(=O)C1=CCCN(C)C1 | 99 |
| C/C(=C\c1csc(C)n1)[C@@H]1C[C@@H]2O[C@@H]2CCC[C@H](C)[C@H](O)[C@@H](C)C(=O)C(C)(C)[C@@H](O)CC(=O)O1 | 98.4 |
